Assay results from different studies.
Protocols differ between the studies behind these lines. ± gives the spread as reported.
Target: Acetylcholinesterase (ache, Electrophorus electricus, UniProt O42275)
Sequence of UniProt O42275 (whole entry, looked up): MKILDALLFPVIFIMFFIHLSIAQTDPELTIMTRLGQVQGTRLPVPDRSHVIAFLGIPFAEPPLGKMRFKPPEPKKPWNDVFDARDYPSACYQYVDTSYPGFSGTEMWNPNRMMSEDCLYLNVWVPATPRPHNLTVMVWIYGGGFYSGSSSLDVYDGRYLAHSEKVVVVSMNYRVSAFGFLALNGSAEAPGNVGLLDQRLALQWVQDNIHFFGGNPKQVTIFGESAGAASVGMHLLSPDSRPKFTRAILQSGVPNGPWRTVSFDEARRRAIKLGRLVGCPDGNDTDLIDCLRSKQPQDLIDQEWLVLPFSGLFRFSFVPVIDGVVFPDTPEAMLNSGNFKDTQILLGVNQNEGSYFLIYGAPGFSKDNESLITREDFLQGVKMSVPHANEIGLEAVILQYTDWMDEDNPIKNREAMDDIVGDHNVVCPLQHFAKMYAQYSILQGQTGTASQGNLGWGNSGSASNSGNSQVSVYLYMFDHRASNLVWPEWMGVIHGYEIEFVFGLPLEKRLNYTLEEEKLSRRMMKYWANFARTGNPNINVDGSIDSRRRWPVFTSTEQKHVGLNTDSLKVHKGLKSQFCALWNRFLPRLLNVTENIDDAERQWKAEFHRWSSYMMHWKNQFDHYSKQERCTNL
Action: inhibitor

| SMILES | effect on | technique | pH | IC50 [µM] |
| --- | --- | --- | --- | --- |
| C=CCc1ccc(OCC(=C)C)c(OC)c1 | enzyme activity | Ellman | pH 7.5 | 146 |
| CO/N=C1/c2cc(OC)c(OC)cc2CC1CC1CCN(Cc2ccccc2)CC1 (stereo not drawn) | enzyme activity | Ellman | – | 0.144 |
| CCCCc1cc(-c2ccccc2)c2cc(/N=N/c3ccc([N+](=O)[O-])cc3)ccc2n1 | enzyme activity | Ellman | pH 7.4 | 17 |
| CC(C)c1ccc(/C=N/NC(=O)COc2ccc(Sc3ccc(OCC(=O)N/N=C/c4ccc(C(C)C)cc4)cc3)cc2)cc1 | enzyme activity | – | – | 193 |
| Cc1nc(-c2ccc(Cl)cc2)nc2sc3c(=O)n(CCN4CCOCC4)cnc3c12 | enzyme activity | Ellman | – | 0.854 |
| COc1cc2c(cc1OC)C(=O)C1(C2)C(c2ccccc2OC)C(Cc2ccccc2)NC12C(=O)Nc1ccc(OC(F)(F)F)cc12 (stereo not drawn) | enzyme activity | – | pH 8 | 6.41 ± 0.1 |
| Cc1ccc(-c2nc3ccc(/N=N/c4ccc(Cl)cc4)cc3c(-c3ccccc3)c2I)cc1 | enzyme activity | Ellman | pH 7.4 | 11.9 |
| O=C(Cc1ccccc1Nc1c(Cl)cccc1Cl)NNC(=S)Nc1ccc(Cl)c(Cl)c1 | enzyme activity | Ellman | – | 0.79 |
| COc1cc2c(cc1OC)C(=O)C1(C2)C(c2ccccc2OC)C(Cc2c[nH]c3ccccc23)NC12C(=O)Nc1ccc(OC(F)(F)F)cc12 (stereo not drawn) | enzyme activity | – | pH 8 | 2.48 ± 0.22 |
| COc1cccc(/C=N/NC(=O)COc2ccc(Sc3ccc(OCC(=O)N/N=C/c4cccc(OC)c4O)cc3)cc2)c1O | enzyme activity | – | – | 27.8 |
| COc1ccc2c(c1)C(=O)c1nccc3cc4c(c-2c13)OCO4 | enzyme activity | – | – | 73.1 |
| O=C(CN1C(=O)c2ccccc2C1=O)Nc1ccc[n+](Cc2cccc(Cl)c2)c1 | enzyme activity | Ellman | – | 6.7 |
| COCc1cc(C)nc(SCC[N+](C)(C)CC(=O)Nc2cccc(C(F)(F)F)c2)c1C#N | – | – | – | 32.3 |
| Nc1ccc(CCNc2c(NC3CCN(Cc4ccccc4)CC3)c(=O)c2=O)cc1 | enzyme activity | Ellman | – | 6.9 |
| C[n+]1ccc2c(c1)[nH]c1ccccc12 | enzyme activity | – | – | 6.6 |
| CCN(CCCCOc1ccc(CCC(=O)N2CCC(Cc3ccccc3)CC2)cc1OC)Cc1ccccc1 | enzyme activity | Ellman | – | 4.6 |
| COc1cccc(C2C(Cc3c[nH]c4ccccc34)NC3(C(=O)Nc4ccc(OC(F)(F)F)cc43)C23Cc2cc(OC)c(OC)cc2C3=O)c1 (stereo not drawn) | enzyme activity | – | pH 8 | 1.97 ± 0.19 |
| COc1cccc2c1C(O)C1c3c(cc4c(c3-2)OCO4)CCN1C (single isomer, unassigned; (-)) | enzyme activity | – | – | 6.12 |

Repeated from above:
| SMILES | effect on | technique | pH | IC50 [µM] |
| --- | --- | --- | --- | --- |
| CO/N=C1/c2cc(OC)c(OC)cc2CC1CC1CCN(Cc2ccccc2)CC1 (stereo not drawn) | enzyme activity | Ellman | – | 0.144 |
| CCCCc1cc(-c2ccccc2)c2cc(/N=N/c3ccc([N+](=O)[O-])cc3)ccc2n1 | enzyme activity | Ellman | pH 7.4 | 17 |
